# Results gathered from unrelated publications.
# Parts stem from different laboratories: compare values within a part only. Values joined by “and” are separate records of one study, mostly repeats; a detail may differ. Changes are numbered by the printed parent chain.
# UniProt P06870, sequence (whole entry, looked up): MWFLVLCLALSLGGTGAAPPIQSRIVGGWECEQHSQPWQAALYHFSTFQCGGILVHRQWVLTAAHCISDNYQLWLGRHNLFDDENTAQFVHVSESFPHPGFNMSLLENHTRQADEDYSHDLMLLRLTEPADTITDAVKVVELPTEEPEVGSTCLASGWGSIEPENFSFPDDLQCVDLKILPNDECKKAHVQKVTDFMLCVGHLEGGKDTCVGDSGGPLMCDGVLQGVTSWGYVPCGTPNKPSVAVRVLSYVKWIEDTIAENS
# UniProt Q9UKR0, sequence (whole entry, looked up): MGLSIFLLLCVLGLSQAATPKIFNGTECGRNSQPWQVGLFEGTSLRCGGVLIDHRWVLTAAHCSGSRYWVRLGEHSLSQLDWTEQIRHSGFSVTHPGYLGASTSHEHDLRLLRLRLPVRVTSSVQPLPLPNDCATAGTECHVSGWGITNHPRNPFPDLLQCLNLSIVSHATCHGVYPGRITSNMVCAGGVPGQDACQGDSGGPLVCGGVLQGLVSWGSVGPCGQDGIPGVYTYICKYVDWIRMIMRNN
# UniProt P03951, sequence (whole entry, looked up): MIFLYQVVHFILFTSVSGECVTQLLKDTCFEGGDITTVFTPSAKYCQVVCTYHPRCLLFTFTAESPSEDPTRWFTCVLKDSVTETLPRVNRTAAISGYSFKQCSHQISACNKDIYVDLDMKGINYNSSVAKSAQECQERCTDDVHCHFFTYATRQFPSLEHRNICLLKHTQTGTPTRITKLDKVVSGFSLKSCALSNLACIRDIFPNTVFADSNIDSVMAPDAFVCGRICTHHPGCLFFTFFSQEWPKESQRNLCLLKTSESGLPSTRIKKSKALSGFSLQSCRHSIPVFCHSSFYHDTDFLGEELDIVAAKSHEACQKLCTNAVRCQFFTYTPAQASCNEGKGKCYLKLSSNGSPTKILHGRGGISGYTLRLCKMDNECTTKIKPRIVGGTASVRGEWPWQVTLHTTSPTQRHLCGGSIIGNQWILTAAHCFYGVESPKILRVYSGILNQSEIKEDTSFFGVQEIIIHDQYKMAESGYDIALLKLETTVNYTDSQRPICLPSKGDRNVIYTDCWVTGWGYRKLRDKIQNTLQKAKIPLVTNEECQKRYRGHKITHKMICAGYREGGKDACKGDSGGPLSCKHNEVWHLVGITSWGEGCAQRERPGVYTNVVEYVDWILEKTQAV
# UniProt Q9P0G3, sequence (whole entry, looked up): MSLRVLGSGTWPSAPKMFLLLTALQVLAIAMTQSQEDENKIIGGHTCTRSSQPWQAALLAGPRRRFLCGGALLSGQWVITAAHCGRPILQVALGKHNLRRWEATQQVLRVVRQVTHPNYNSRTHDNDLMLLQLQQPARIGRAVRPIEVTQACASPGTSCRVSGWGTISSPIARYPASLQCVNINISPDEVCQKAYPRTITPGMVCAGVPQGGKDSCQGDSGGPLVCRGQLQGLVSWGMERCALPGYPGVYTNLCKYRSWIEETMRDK
# UniProt P08709, sequence (whole entry, looked up): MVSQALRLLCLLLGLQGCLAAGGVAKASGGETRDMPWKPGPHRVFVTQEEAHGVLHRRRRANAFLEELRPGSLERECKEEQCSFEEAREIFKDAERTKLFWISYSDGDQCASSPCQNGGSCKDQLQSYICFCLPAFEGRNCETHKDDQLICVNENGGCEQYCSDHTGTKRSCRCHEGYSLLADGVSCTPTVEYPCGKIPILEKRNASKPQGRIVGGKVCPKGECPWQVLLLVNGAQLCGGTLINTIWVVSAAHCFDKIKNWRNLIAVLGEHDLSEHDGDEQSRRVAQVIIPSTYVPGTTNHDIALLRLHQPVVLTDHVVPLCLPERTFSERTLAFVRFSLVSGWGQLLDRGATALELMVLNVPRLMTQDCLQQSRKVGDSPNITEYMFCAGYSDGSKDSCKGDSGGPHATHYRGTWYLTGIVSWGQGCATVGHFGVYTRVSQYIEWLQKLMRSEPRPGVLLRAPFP
# UniProt Q8IU80, sequence (whole entry, looked up): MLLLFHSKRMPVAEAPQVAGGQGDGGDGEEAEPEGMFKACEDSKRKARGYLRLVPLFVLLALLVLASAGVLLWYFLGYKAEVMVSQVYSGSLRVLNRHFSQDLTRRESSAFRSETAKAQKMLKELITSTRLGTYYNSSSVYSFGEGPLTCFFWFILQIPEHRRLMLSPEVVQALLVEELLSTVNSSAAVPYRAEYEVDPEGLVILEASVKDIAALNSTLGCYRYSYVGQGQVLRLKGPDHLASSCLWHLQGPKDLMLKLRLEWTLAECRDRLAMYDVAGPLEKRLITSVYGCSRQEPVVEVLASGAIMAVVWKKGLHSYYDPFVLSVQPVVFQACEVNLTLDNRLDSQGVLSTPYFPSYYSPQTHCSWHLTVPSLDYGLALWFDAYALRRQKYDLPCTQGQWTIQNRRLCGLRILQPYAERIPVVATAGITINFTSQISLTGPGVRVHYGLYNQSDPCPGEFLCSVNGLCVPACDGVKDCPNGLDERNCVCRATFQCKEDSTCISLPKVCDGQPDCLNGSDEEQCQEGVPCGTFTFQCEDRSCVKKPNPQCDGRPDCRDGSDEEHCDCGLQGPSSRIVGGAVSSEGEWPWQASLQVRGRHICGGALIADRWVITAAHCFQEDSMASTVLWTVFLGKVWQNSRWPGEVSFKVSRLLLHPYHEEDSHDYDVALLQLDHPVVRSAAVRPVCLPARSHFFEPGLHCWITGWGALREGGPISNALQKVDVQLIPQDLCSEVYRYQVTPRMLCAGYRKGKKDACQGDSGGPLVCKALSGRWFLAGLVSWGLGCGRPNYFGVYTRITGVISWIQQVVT
# UniProt Q9Y337, sequence (whole entry, looked up): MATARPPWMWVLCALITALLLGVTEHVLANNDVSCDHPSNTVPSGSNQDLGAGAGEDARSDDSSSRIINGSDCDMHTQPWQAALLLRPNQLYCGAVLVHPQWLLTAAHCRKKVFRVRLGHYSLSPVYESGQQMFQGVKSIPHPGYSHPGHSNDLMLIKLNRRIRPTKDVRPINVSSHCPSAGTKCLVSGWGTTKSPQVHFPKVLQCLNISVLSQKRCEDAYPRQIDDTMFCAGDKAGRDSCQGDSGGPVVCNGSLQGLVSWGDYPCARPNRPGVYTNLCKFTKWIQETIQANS
# UniProt P00742, sequence (whole entry, looked up): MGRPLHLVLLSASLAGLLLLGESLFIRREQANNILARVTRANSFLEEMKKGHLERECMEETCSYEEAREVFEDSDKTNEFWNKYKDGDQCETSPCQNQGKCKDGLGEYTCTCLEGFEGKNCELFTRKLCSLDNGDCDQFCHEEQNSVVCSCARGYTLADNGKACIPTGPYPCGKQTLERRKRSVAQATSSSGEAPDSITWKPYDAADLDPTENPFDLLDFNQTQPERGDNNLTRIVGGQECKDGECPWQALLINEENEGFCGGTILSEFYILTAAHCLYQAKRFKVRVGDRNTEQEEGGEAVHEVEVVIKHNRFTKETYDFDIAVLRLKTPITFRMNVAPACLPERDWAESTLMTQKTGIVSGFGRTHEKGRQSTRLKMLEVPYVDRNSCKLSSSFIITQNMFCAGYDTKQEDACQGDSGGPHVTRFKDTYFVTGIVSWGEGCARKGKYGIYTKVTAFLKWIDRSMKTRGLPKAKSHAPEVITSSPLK

# Block 1
# Compound: CNC(=N)NCCC[C@H](NC(=O)[C@H](CC(C)C)NC(=O)NNC(=O)[C@H](Cc1ccccc1)NC(=O)[C@H](CO)NC(=O)[C@H](CC(N)=O)NC(=O)[C@@H](Cc1ccncc1)NC(=O)[C@H](N)Cc1ccc(O)cc1)C(=O)N[C@@H](Cc1ccccc1)C(N)=O
# Tested at: 0.1 µM
# Reference: DMSO
cell line,assay,viability
sample BA colorectal tumour organoid,,58%
sample J colorectal tumour organoid,,108%
normal-adjacent epithelium patient-derived organoids sample H,CellTiter-Glo,102% and 101%
sample B colorectal tumour organoid,,116%
normal-adjacent epithelium patient-derived organoids sample G,CellTiter-Glo,121% and 107%

# Block 2
# Target: Leukocyte tyrosine kinase receptor (LTK, Homo sapiens, UniProt P29376)
# UniProt P29376, sequence (whole entry, looked up): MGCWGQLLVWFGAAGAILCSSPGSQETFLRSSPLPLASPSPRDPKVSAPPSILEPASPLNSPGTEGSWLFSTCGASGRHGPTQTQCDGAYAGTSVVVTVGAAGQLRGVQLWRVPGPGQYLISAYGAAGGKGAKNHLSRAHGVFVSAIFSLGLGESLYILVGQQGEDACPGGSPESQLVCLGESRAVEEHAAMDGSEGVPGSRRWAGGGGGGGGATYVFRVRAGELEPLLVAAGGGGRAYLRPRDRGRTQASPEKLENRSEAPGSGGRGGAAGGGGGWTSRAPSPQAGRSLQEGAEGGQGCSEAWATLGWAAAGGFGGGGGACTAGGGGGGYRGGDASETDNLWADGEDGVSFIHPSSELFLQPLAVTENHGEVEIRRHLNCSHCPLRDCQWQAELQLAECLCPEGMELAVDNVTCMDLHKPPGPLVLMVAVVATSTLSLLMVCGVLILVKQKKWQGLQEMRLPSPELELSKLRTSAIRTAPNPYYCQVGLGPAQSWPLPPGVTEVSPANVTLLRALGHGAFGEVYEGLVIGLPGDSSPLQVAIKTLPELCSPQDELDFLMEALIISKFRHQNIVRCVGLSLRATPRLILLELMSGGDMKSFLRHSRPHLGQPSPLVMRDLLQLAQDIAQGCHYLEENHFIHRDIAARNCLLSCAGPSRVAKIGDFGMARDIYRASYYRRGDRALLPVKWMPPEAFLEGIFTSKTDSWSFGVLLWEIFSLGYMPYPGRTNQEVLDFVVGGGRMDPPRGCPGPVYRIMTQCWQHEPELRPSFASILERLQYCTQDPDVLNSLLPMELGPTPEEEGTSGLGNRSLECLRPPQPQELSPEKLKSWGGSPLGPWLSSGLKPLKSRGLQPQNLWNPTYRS
# Observed: enzyme activity
# Action: inhibitor
# Method: radiometric
# Tested at: 0.5 µM
Compound,remaining activity [%]
CSc1nc(-c2ccnc(N[C@@H](C)c3ccccc3)c2)c(-c2ccc(F)cc2)[nH]1 (racemic),83.6
O=C1Cc2c([nH]c3ccc([N+](=O)[O-])cc23)-c2ccccc2N1,93.9
O=C1NC(=O)C(c2c[nH]c3ccccc23)=C1c1c[nH]c2ccccc12,85.1
CCCC(=O)Oc1ccc2[nH]c(C(=O)c3cc4ccccc4[nH]3)cc2c1,87.5
CC(=O)c1ccc(N2CCOCC2)cc1O,102
N#CC(=C(N)Sc1ccc(N)cc1)c1ccccc1C(F)(F)F,100
Cc1cncc2cccc(S(=O)(=O)N3CCCN(C(=O)CN)C[C@@H]3C)c12,93
COc1cc(Nc2c(C#N)cnc3cc(OCCCN4CCN(C)CC4)c(OC)cc23)c(Cl)cc1Cl,57.7
Cc1cc(Nc2nc(-c3ccccc3)nc3ccccc23)n[nH]1,63.6
NC(=O)c1ccc(N(C(N)=O)c2c(F)cccc2F)nc1-c1ccc(F)cc1F,95
Cc1ccc(NC2=CC(=O)c3sc(C)nc3C2=O)cc1,88.8
CC(C)(C)n1nc(Cc2cccc3ccccc23)c2c(N)ncnc21,98.2
CC#CC(=O)Nc1cc2c(Nc3ccc(F)c(Cl)c3)ncnc2cn1,93
CCc1[nH]c(-c2ccc(OC)cc2)nc1-c1ccncc1,106
Nc1ncnc2c1cnn2-c1ccccc1,96.8
COc1ccc(S(=O)(=O)N(CCO)c2ccccc2CN(C)CC=Cc2ccc(Cl)cc2)cc1,97.9
CC[n+]1c(/C=C/N(C)c2ccccc2)n(-c2ccccc2)c2ccc(-c3nc4ccccc4s3)cc21,90.7
Nc1nc(Nc2ccc(S(N)(=O)=O)cc2)nn1C(=O)c1c(F)cccc1F,85.8
Fc1ccc(-c2nc3n(c2-c2ccncc2)CCS3)cc1,102
Oc1ccc(Nc2nc(-c3ccc(Cl)cc3)cs2)cc1,104
O=S(=O)(NCCNC/C=C/c1ccc(Br)cc1)c1cccc2cnccc12,94.7

# Block 3
# Target: CCNE1, cyclin fold, Cln2 fusion (human)
# Method: yeast growth competition, sequencing
# Sample: yeast
# Notes: strong parent motif
# Reference: not given
# Direction: higher = stronger binding
# Parent: viral docking peptide; TSVRRALFTGGSD; partner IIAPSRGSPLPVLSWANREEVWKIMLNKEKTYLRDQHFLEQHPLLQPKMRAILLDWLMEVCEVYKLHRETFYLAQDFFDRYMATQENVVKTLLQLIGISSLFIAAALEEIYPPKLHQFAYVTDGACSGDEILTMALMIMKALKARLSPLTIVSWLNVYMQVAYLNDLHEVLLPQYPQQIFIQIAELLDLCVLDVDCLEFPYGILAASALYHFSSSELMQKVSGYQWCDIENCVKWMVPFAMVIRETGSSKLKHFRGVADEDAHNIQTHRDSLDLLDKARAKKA
Variant,normalised enrichment score
S12P,5.88
R4Q,1.69
R4M,1.86
R4I,4.06
R4N,1.79
L7H,-0.259
R5W,0.549
S2I,2.77

# Block 4
# Compound: CN(C)C(=O)COC(=O)Cc1ccc(OC(=O)c2ccc(NC(=N)N)cc2)cc1
target,IC50
"Kallikrein-12 (Homo sapiens, UniProt Q9UKR0)",1310 nM
"F10 (Homo sapiens, UniProt P00742)",9910 nM
"F7 (Homo sapiens, UniProt P08709)",3540 nM
"Kallikrein-14 (Homo sapiens, UniProt Q9P0G3)",999 nM
"F11 (Homo sapiens, UniProt P03951)",3.46 nM
"Kallikrein-5 (Homo sapiens, UniProt Q9Y337)",1010 nM
"Kallikrein-1 (KLK1, Homo sapiens, UniProt P06870)",17200 nM and > 10000 nM
"Transmembrane protease serine 6 (Homo sapiens, UniProt Q8IU80)",7.8 nM

# Further values, each from its own experiment
SMILES,tested on,assay,system,conditions,endpoint,value
Cc1ncsc1-c1ccc(CNC(=O)[C@@H]2C[C@@H](O)CN2C(=O)[C@@H](NC(=O)CCCCCNC(=O)Cc2ccccc2)C(C)(C)C)cc1,,linear regression of PRP log k',,,"logD (1,9-decadiene/water)",-2.34
CN1CCN(C(=O)Cc2ccc(Br)cc2)CC1,,,"human, microsomes or S9","2 µM, 0.5 h",remaining compound,92.5%
O=C1CCC(N2Cc3c(ccc4c3OCC43CCN(Cc4ccccc4)CC3)C2=O)C(=O)N1 (centres unmarked),,metabolic stability,"mouse, liver microsomes","1 µM, 0 h",compound remaining,100%
COc1cc(C2NCc3ccccc3-n3cccc32)ccc1O (centres unmarked),,,"human, microsomes or S9","2 µM, 0.5 h",remaining compound,> 100%
CCC1=C[C@@H]2CN3CCc4c([nH]c5ccccc45)[C@@](C(=O)OC)(C2)[C@@H]13,HaCaT,,,"100 µM, 60 h",viability,55.8%

# Excerpt of the above (block 3):
Variant,normalised enrichment score
L7H,-0.259
R4N,1.79
R4Q,1.69
